Assay results from different studies.
Protocols differ between the studies behind these lines. “And” joins repeats or separate records; there may be more than shown. Numbers after ± are the reported error.
Oprm1: Mu-type opioid receptor (Oprm1, Rattus norvegicus, UniProt P33535)
UniProt P33535, sequence (whole entry, looked up): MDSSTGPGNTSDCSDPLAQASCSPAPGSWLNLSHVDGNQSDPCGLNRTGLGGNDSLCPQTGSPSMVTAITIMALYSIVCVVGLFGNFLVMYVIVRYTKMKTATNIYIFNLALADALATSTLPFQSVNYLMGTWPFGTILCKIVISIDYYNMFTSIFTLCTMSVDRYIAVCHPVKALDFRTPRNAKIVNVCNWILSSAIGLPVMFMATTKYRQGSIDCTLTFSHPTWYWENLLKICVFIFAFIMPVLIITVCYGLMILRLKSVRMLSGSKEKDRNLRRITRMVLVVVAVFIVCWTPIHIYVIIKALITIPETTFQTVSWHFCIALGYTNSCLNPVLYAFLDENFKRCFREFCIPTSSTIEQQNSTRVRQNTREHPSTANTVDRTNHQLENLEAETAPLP
Uncharacterized hydrolase SAUSA300_2518: Uncharacterized hydrolase SAUSA300_2518 (Staphylococcus aureus, UniProt Q2FDS6)
sdiA: Regulatory protein SdiA (sdiA, Escherichia coli, UniProt P07026)
UniProt P07026, sequence (whole entry, looked up): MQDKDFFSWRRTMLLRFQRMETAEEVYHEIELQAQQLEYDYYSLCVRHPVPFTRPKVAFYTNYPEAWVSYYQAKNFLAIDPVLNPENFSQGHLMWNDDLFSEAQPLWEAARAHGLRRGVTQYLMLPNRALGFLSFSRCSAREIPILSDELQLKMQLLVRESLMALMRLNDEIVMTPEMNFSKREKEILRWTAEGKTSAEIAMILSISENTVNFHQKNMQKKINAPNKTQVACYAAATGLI
KEAP1: Kelch-like ECH-associated protein 1 (KEAP1, Homo sapiens, UniProt Q14145)
UniProt Q14145, sequence (whole entry, looked up): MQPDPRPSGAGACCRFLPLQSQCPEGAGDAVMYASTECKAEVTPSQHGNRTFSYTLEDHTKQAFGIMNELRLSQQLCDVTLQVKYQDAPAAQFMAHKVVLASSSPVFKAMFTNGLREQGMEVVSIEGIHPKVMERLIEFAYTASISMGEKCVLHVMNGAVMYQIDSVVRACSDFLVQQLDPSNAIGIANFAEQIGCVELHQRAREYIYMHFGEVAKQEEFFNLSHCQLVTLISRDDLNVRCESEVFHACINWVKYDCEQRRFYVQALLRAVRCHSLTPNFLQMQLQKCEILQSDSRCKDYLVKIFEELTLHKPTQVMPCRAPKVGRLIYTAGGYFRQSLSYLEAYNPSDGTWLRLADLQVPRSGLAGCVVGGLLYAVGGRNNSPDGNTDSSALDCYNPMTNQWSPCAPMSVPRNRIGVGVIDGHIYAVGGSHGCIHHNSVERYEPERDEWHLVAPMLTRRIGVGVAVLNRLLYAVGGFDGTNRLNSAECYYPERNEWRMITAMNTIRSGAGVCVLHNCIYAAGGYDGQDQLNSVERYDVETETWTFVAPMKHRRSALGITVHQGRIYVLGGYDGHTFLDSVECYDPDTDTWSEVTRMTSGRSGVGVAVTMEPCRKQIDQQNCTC
lasR: Transcriptional activator protein LasR (lasR, Pseudomonas aeruginosa, UniProt P25084)
ADRA2A: Alpha-2A adrenergic receptor (ADRA2A, Homo sapiens, UniProt P08913)
UniProt D0VWV4, sequence (whole entry, looked up): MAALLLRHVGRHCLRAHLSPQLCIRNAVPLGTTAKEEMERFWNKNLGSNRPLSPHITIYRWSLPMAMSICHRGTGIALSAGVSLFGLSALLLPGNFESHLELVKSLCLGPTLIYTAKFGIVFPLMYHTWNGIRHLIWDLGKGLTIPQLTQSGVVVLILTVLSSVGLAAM
UniProt Q9UH17, sequence (whole entry, looked up): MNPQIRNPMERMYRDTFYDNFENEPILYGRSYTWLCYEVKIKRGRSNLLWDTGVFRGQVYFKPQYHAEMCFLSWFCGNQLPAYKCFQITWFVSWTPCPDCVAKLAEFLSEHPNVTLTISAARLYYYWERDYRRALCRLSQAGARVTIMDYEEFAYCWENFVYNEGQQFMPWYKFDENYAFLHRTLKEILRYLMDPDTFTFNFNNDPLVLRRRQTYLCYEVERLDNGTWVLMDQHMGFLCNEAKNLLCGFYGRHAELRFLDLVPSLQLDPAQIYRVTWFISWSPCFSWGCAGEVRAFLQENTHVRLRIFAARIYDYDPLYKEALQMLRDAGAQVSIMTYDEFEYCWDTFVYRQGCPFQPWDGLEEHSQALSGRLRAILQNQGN
UniProt Q007T0, sequence (whole entry, looked up): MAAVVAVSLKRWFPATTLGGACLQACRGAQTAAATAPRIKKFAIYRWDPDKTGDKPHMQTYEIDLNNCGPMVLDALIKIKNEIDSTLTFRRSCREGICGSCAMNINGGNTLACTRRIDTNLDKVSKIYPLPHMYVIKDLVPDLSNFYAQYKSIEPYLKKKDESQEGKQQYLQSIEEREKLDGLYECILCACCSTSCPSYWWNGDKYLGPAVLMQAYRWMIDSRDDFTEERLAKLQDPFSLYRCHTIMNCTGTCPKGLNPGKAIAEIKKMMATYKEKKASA
UniProt P08913, sequence (whole entry, looked up): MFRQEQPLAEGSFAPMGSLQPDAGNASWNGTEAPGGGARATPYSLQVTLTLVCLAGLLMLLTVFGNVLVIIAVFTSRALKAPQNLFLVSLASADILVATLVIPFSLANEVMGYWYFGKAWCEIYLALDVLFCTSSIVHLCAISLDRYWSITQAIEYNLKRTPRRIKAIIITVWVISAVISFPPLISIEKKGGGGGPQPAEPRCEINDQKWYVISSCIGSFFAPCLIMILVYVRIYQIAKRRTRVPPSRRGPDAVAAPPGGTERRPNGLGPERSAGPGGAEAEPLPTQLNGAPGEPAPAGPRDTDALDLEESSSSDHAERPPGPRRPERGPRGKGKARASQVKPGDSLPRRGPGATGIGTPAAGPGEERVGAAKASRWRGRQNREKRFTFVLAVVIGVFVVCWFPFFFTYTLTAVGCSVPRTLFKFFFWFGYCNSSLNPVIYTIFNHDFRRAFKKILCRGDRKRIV
UniProt A5GZW8, sequence (whole entry, looked up): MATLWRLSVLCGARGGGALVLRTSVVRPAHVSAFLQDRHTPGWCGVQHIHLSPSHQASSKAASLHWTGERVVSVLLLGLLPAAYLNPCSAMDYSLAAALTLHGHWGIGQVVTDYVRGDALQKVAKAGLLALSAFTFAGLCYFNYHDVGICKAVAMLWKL
UniProt Q9Y2J8, sequence (whole entry, looked up): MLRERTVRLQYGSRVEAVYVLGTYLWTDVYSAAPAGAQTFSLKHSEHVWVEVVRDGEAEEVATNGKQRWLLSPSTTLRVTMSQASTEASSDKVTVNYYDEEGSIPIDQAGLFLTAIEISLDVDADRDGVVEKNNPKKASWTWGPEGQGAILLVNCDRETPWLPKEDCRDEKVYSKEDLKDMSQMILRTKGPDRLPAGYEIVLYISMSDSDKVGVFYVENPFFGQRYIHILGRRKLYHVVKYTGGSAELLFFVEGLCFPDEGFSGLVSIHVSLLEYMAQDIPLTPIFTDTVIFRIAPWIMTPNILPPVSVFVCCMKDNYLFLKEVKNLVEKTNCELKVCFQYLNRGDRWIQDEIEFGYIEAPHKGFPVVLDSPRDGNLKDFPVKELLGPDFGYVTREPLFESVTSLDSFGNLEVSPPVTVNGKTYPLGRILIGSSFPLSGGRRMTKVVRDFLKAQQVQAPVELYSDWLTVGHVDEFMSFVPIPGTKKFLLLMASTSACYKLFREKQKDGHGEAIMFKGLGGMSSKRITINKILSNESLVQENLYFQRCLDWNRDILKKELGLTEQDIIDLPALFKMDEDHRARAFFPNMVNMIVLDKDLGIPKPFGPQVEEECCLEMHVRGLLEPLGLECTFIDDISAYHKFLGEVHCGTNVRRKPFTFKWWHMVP
UniProt P16234, sequence (whole entry, unmodified, looked up): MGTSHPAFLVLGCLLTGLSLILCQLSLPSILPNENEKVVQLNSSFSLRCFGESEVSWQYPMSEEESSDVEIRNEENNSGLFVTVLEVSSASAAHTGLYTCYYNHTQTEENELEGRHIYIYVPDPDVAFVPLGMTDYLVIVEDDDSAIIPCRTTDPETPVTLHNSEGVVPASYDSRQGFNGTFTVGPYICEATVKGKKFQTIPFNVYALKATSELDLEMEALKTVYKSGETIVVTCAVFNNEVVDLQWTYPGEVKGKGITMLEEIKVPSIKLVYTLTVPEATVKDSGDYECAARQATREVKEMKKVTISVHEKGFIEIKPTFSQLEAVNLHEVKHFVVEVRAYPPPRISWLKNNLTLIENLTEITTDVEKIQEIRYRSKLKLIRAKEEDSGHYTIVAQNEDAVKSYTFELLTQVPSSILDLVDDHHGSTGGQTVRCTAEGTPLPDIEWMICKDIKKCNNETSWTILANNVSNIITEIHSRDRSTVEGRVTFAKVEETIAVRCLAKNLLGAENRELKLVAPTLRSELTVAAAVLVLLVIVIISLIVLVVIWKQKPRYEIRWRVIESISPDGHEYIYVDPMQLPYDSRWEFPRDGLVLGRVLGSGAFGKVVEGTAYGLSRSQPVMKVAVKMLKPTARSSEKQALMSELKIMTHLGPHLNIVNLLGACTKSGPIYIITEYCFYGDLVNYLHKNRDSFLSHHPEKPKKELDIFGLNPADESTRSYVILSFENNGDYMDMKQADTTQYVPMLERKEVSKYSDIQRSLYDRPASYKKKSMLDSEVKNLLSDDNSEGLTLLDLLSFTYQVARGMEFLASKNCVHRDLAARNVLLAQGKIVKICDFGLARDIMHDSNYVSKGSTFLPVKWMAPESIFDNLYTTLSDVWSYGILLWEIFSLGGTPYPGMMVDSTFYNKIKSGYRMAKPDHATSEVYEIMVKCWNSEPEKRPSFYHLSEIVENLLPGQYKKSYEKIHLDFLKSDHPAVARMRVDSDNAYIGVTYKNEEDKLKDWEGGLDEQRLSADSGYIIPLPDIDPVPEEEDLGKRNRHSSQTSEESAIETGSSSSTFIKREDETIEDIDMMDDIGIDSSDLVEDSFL
UniProt P0A988, sequence (whole entry, unmodified, looked up): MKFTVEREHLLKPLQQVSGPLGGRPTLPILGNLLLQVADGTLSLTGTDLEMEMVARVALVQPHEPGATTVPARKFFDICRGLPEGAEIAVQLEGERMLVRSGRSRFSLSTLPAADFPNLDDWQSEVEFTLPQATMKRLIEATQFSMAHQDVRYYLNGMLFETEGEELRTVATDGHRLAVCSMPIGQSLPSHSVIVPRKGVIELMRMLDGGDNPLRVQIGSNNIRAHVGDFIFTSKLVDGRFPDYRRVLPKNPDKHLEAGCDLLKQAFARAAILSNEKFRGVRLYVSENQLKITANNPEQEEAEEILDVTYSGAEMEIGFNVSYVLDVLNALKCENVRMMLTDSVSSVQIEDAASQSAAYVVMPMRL

| SMILES | target | test | system | conditions | how to read | endpoint | value |
| --- | --- | --- | --- | --- | --- | --- | --- |
| CON(C(=O)c1cn(C)nc1C(F)F)C(C)Cc1c(Cl)cc(Cl)cc1Cl (centres unmarked) | SDHD/SDHC/SDHB (Sus scrofa, UniProt A5GZW8+D0VWV4+Q007T0) | enzyme activity, inhibitor, DCIP reduction | pig | 1 µM, added: DCIP 5 µM | – | reaction velocity | 0.000664 µM/s and 0.000572 µM/s |
| C[C@@H](O)[C@@H]1CN([C@@H](CC2CCCCC2)CN2CCC[C@H]2CN2CCNC[C@@H]2Cc2ccc3ccccc3c2)CCN1CCCC1CCCC1 | Oprm1 | radioligand binding | rat brain membranes | 500 nM, pH 7.5, 25 °C, added: 0.87 nM [3H]DAMGO | – | remaining binding | 103 ± 7.7% |
| O=S(=O)(F)c1cccc2c1OCC2 | Uncharacterized hydrolase SAUSA300_2518 | enzyme activity, inhibitor, fluorogenic substrate | – | 0.01 µM | – | remaining activity | 110% |
| C[C@@H](O)[C@@H]1CN([C@H](Cc2ccc3ccccc3c2)CN2CCC[C@H]2CN2CCNC[C@@H]2CO)CCN1CCC12CC3CC(CC(C3)C1)C2 | Oprm1 | radioligand binding | rat brain membranes | 500 nM, pH 7.5, 25 °C, added: 0.87 nM [3H]DAMGO | – | remaining binding | 102 ± 8.67% |
| Cc1ccc(OS(=O)(=O)F)c(C(=O)Nc2ccncc2)c1 | Uncharacterized hydrolase SAUSA300_2518 | enzyme activity, inhibitor, fluorogenic substrate | – | 0.05 µM | – | remaining activity | 94.1% and 89.9% and 87.3% |
| CC(C)[C@H]1NC(=O)C[C@H]2/C=C/CCSSC[C@@H](NC1=O)C(=O)N[C@H](Cc1cccc3ccccc13)C(=O)NCC(=O)O2 | NEK1 (Homo sapiens, UniProt Q96PY6) | enzyme activity, inhibitor | – | 10 µM | – | inhibition | 16.3% |
| N#Cc1cccc(CC(=O)N[C@H]2CCOC2=O)c1 | sdiA | – | – | – | – | Emax | 106% |
| CC(C)[C@@H]1NC(=O)[C@H](CCC(=O)O)NC(=O)CNC(=O)[C@H]([C@@H](C)O)NC(=O)[C@H](CCC(=O)O)NC(=O)[C@H](CCC(=O)O)NC(=O)[C@H](CC(=O)O)NC(=O)[C@H](C(C)C)NC(=O)[C@H]([C@@H](C)O)NC(=O)CNC(=O)[C@H](CC(=O)O)NC(=O)[C@H](CC(N)=O)NC(=O)[C@H](Cc2ccc(O)cc2)NC1=O | KEAP1 | Keap1-Nrf2 binding, inhibitor, competitive FP | – | 25 µM, 30 min, added: Nrf2 peptide probe | lower = stronger inhibition | fluorescence polarization | 0.101 a.u. and 0.159 a.u. |
| O=C1NC(=O)c2c1c1cc(F)c[n+]3c1c1c2c2cc(O)ccc2[n]1[Ru-4]312([N]=C=S)[S+]3CC[S+]1CC[S+]2CC3 (centres unmarked) | PDGFRA (Homo sapiens, UniProt P16234, D842V) | enzyme activity | – | 100 nM, human enzyme, added: 10 µM ATP | reference: untreated | remaining activity | 7% |
| N[C@H](C(=O)N1CCCC1)C1CCN(c2nccc3c(-c4ncc(Cl)cc4Cl)cccc23)CC1 | PADI2 (Homo sapiens, UniProt Q9Y2J8) | thermal shift | – | 0.00302 µM | – | melting temperature | 58.8 °C and 58.9 °C |
| CCCCCCCCCC(=O)CC(=O)Nc1ccccc1O | lasR | reporter gene, agonist | – | – | reference: EC50 PAO-JP2 over E. coli JLD271 | potency ratio | 180 |
| CC(C)[C@@H]1NC(=O)[C@H](CC(N)=O)NC(=O)CNC(=O)[C@H](CC(N)=O)NC(=O)[C@H](C)NC(=O)[C@H](CC(=O)O)NC(=O)[C@H]([C@@H](C)O)NC(=O)[C@H](CCC(=O)O)NC(=O)CNC(=O)[C@H]([C@@H](C)O)NC(=O)[C@H](CCC(=O)O)NC(=O)[C@H](CCC(=O)O)NC(=O)[C@H](CC(=O)O)NC1=O | KEAP1 | Keap1-Nrf2 binding, inhibitor, competitive FP | – | 1.562 µM, 30 min, added: Nrf2 peptide probe | lower = stronger inhibition | fluorescence polarization | 0.083 a.u. and 0.192 a.u. |
| COc1ccccc1-c1n[nH]c2nc(NC3CCN(C(=O)Cc4ccc(F)cc4F)CC3)ncc12 | Leishmania donovani succinyl-CoA synthetase alpha (LINJ.25.2230) | bead binding competition | Leishmania donovani extract | 10 µM | reference: vehicle | relative abundance | 0.91 |
| Cc1cc(-c2ccc3ccccc3c2)nnc1NCCN1CCN(C)CC1 | ADRA2A | antagonist | – | concentration not given | – | antagonist activity | negative |
| CN(C)CCCSC(=S)N1CCN(C(=O)/C=C/c2coc3ccccc3c2=O)CC1 | Nucleoprotein (N, Tomato spotted wilt virus, UniProt P25999, Y184A) | binding, microscale thermophoresis | – | 500 µM | dose series | MST response | 854 a.u. |
| CN(C)[C@H]1C[C@@]23CC[C@@]4(O2)C(=CC[C@]2(C)[C@@H](c5ccc6ccncc6c5)CC[C@H]24)C=C3[C@@H](O)[C@@H]1O | MAP3K6 (Homo sapiens, UniProt O95382) | ATP probe labelling, inhibitor, KiNativ profiling | – | 0.1 µM | – | inhibition | -3.1% |

| SMILES | target | test | system | conditions | how to read | endpoint | value |
| --- | --- | --- | --- | --- | --- | --- | --- |
| O=C(CCCOc1cccc(Br)c1)N[C@H]1CCSC1=O | lasR | reporter gene, agonist | – | – | reference: EC50 PAO-JP2 over E. coli JLD271 | potency ratio | 320 |
| C=CC(=O)Nc1cc(-c2ccc(C(=O)N3CCCC(O)(CC)C3)cc2)ccc1F (centres unmarked) | DNA dC->dU-editing enzyme APOBEC-3B, C-terminal domain (Homo sapiens, UniProt Q9UH17) | covalent adduct, intact protein MS | – | 5 h, 1-fold, 25 µM | – | unmodified protein | 100% |
| CC(C)CC(O)(CC(C)C)c1cn(C(=O)N2CCCC2)nn1 | Acyl-protein thioesterase 2 (Mus musculus, UniProt Q9WTL7) | – | mouse, brain | concentration not given | reference: vehicle over compound | activity-based probe labelling ratio | 2.69 |
| O=C(NCc1cc(Br)cc(Br)c1OC(=O)c1ccccc1[N+](=O)[O-])c1ccccc1Cl | lasR | reporter gene, agonist | Escherichia coli JLD271 | 10 µM, pSC11 and pJN105L plasmids | reference: OdDHL at same concentration | agonist activity | 105% |
| COc1cc2c(cc1S(=O)(=O)F)C(=O)NCCC2 | Uncharacterized hydrolase SAUSA300_2518 | enzyme activity, inhibitor, fluorogenic substrate | – | 0.05 µM | – | remaining activity | 92.4% and 94.4% and 93.9% |
| CC[C@@H](C)[C@@H]1CN([C@@H](CC2CCCCC2)CN2CCC[C@H]2CN2CCNC[C@@H]2Cc2ccc3ccccc3c2)CCN1CCCC1CCCC1 | Oprm1 | radioligand binding | rat brain membranes | 500 nM, pH 7.5, 25 °C, added: 0.87 nM [3H]DAMGO | – | remaining binding | 108 ± 3.77% |
| CCc1nnc(-c2c(OC)cc(-c3cnc4cc(-c5cnn(C)c5)ccn34)cc2OC)o1 | ADRA2A | antagonist radioligand, radioligand binding | – | 10 µM, SafetyScreen44 alpha 2 A replicate 2 | lower = stronger displacement | remaining binding | 104% |
| CCOC(=O)[C@@H]1Cc2c(cc([N+](=O)[O-])cc2[N+](=O)[O-])[C@H](O)[C@]12C(=O)Nc1ccc(Br)cc12 | MAP3K2 (Homo sapiens, UniProt Q9Y2U5) | binding, competition with immobilised ligand | – | 0.1 µM | – | remaining binding | 25% |
| Cc1cc(O)cc(C)c1C[C@H](N)C(=O)N[C@H](CCCNC(=N)N)C(=O)N[C@@H](Cc1ccccc1)C(=O)N[C@@H](CCCCN)C(=O)NCCCCCCCCCCCCNC(=O)[C@H](Cc1ccccc1)NC(=O)[C@H](CC1CCCCC1)NC[C@@H]1Cc2ccccc2CN1C(=O)[C@@H](N)Cc1ccc(O)cc1 | Oprm1 | binding | rat brain membranes | added: [3H]DAMGO | reference: Ki mu over Ki delta | selectivity ratio | 2.49 |
| C[C@@H](NC(=O)[C@@H](N)Cc1ccc(O)cc1)C(=O)NCC(=O)N(C)[C@@H](Cc1ccccc1)C(=O)NCCO | human mu opioid receptor | β-arrestin-2 recruitment, agonist, cell-based | – | – | – | Emax | 102.7 ± 0.2% |
| C=CC(=O)NC[C@H](NC(=O)[C@H](CC1CCCCC1)NC(=O)[C@H](CCC(N)=O)NC(C)=O)C(=O)N[C@@H](CC(C)C)C(=O)N[C@@H](Cc1ccccc1)C(=O)O | Beta sliding clamp (Escherichia coli, UniProt P0A988) | binding, isothermal titration calorimetry | – | pH 7.4, 22 °C | – | ΔG | -9.3 kcal/mol |
| CS(C)(=O)=Nc1ccc(-c2ccc(-c3nc4cc(O[C@@H]5CO[C@H]6[C@@H]5OC[C@H]6O)[nH]c4cc3F)cc2)cc1 | STK4 (Homo sapiens, UniProt Q13043) | enzyme activity, inhibitor | – | 10 µM | – | inhibition | 40% |
| O=C(CCCOc1ccc(Cl)cc1)N[C@H]1CCOC1=O | lasR | reporter gene, agonist | Escherichia coli JLD271 | 10 µM, pSC11 and pJN105L plasmids | reference: OdDHL at same concentration | agonist activity | 11% |
| CC(C)[C@@H]1NC(=O)[C@H](Cc2ccccc2)NC(=O)[C@H](C)NC(=O)[C@H](Cc2ccccc2)NC(=O)[C@@H](NC(=O)[C@H](C)N)CSC1=O | Histidine kinase AgrC (Listeria monocytogenes, UniProt A8E0G3) | reporter gene, agonist, agr GFP reporter | – | – | reference: native 6-mer AIP | EC50 ratio | 66 fold |
| CCCCCCCCCC(O)CC(=O)N[C@H]1CCOC1=O (some centres unmarked) | sdiA | – | – | – | – | Emax | 86.3% |
| C#CCCCCOc1ccc2c(c1)CCCN2C(=O)CCl | All-trans-retinol 13,14-reductase (RETSAT, Homo sapiens, UniProt Q6NUM9) | mass spectrometry profiling, measured: RETSAT | H460 cell lysate | 100 µM over 10 µM, UniProt Q6NUM9 | reference: high over low concentration | reactivity ratio | 1.44 |

Some of these lines once more:
| SMILES | target | test | system | conditions | how to read | endpoint | value |
| --- | --- | --- | --- | --- | --- | --- | --- |
| CCc1nnc(-c2c(OC)cc(-c3cnc4cc(-c5cnn(C)c5)ccn34)cc2OC)o1 | ADRA2A | antagonist radioligand, radioligand binding | – | 10 µM, SafetyScreen44 alpha 2 A replicate 2 | lower = stronger displacement | remaining binding | 104% |
| O=C1NC(=O)c2c1c1cc(F)c[n+]3c1c1c2c2cc(O)ccc2[n]1[Ru-4]312([N]=C=S)[S+]3CC[S+]1CC[S+]2CC3 (centres unmarked) | PDGFRA (Homo sapiens, UniProt P16234, D842V) | enzyme activity | – | 100 nM, human enzyme, added: 10 µM ATP | reference: untreated | remaining activity | 7% |
| Cc1cc(-c2ccc3ccccc3c2)nnc1NCCN1CCN(C)CC1 | ADRA2A | antagonist | – | concentration not given | – | antagonist activity | negative |
